# Measured values gathered from unrelated publications.
# Every numbered part comes from another study and shows a few of its results, in no order. Substitutions count along the parent as printed.

# Study 1
# Target: ABI1, truncated, D143A, DHFR fusion (Arabidopsis thaliana)
# Method: DHFR PCA, deep sequencing
# Medium: yeast
# Notes: methotrexate growth selection, single substitutions
# Added: (+)-ABA 0.032 µM
# Reference: wild-type fitted maximum
# Reading: higher = stronger binding
# Starting sequence: PYL1, truncated, DHFR fusion (Arabidopsis thaliana); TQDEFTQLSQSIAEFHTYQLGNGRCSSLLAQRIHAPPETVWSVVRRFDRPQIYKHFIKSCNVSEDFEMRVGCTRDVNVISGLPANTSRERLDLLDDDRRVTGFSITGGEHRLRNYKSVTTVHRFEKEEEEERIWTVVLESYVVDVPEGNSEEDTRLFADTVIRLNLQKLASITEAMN
Substitution,relative binding score [%]
G108C,6.39
Q31M,3.53
A30E,0.273
G148N,-7.15
T1Y,24.2
M176H,5.74
V62R,-2.49
E139Q,20

# Study 2
# Target: NFE2L3, bZIP domain (human)
# Method: DHFR protein complementation
# Medium: yeast
# Notes: single substitutions, most at no-binding floor
# Reference: wild-type JUN-FOS pair
# Reading: higher = stronger binding
# Starting sequence: JUN, bZIP domain (human); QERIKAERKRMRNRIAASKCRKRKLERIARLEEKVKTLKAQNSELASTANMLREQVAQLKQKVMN; partner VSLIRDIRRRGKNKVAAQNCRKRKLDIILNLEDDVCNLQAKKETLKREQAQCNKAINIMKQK
Substitution,binding fitness
A40T,-1.41 natural log
A29E,-1.36 natural log
E44T,-1.47 natural log
K36L,-1.28 natural log
Q55T,-1.31 natural log
A49R,-1.44 natural log
M51H,-1.54 natural log
A29Q,-1.47 natural log

# Study 3
# Target: CEP164, C-terminal peptide (human)
# Method: DHFR complementation, deep sequencing
# Medium: yeast
# Notes: single substitutions, model-inferred values
# Reference: wild type
# Reading: higher = weaker binding
# Starting sequence: PDZK1, PDZ domain 2 (human); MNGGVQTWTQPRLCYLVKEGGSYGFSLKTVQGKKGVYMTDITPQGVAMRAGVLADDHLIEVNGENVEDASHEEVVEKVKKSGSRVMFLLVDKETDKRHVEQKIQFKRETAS; partner HNRVKVYRF
Substitution,binding free energy change [kcal/mol]
K106F,-0.103
K96L,0.0461
V52F,1.32
D56T,0.211
S111C,0.0774
L88V,0.163
S111G,-0.124
V5S,-0.088

# Mixed results
SMILES,target,method,tested at,reference,reading,measurement,result
COc1cc(C(=O)N2CCC(N3CCN(C)CC3)CC2)ccc1Nc1ncc2c(n1)N(C)c1ccccc1C(=O)N2C,MKNK1,KINOMEscan,10 µM,DMSO control,lower = stronger binding,binding,50%

# A few entries again (study 2):
Substitution,binding fitness
A40T,-1.41 natural log
A29Q,-1.47 natural log
K36L,-1.28 natural log
